# Measured values pooled from the literature.
# A part holds a random share of what one study measured.

# Set 1
# Target: Histone acetyltransferase KAT6A, winged helix 2, GST fusion (KAT6A, Homo sapiens, UniProt Q92794, residues 85-181)
# Method: protein binding microarray
# Form: double-stranded DNA, one strand shown
# Matrix: in vitro
# Concentration: not given
# Setting: 8-mer, flanks averaged, mean of 2 arrays, mostly near background
# Relative to: not given
# Reading: higher = stronger binding
# Target sequence (chain): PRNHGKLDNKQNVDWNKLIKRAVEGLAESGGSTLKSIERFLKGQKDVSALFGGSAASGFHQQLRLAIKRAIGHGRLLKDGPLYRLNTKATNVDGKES
Oligonucleotide,E-score
AACCGTTA,-0.224
AGCAGTTG,-0.0177
GGTGTTAA,-0.0184
ACTACAAG,-0.0276
ACCGTGCT,-0.0808
CGGAAGGA,0.0918
GGACGAGA,0.153
AAGCGCGT,-0.0865
CCCAACGG,0.072
GGTAACAA,0.0371
ATAGCATC,0.108
AAACATGA,-0.127
CGCTAGCA,0.0329
AAGGCACG,0.147
CCGTTATC,-0.106
GATATACC,0.0465
AGGTTTAG,-0.0646
ATAACGTC,-0.115
ATGAAGGA,0.0584
ACCACCAC,-0.0715
AAAGTCGG,-0.0162
ATCTAAGC,-0.0139
CGATATGC,-0.0198
CCCTCTCA,-0.00752
GATCATCA,-0.0404

# Set 2
# Target: RNA binding protein fox-1 homolog 2, RRM domain, GST-SBP tag (RBFOX2, Homo sapiens, UniProt O43251-10, residues 100-194)
# Method: RNA Bind-n-Seq
# Form: RNA
# Matrix: in vitro
# Concentration: 365 nM
# Setting: natural RNA segment, single round, ends assumed
# Relative to: no-protein control
# Reading: higher = stronger binding
# Residues (chain): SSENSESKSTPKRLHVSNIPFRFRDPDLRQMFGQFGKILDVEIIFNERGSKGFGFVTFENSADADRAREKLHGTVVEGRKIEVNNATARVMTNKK
Oligonucleotide,RBNS enrichment (R)
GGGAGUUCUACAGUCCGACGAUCCAAUGUGAAAAUCACGUUUGCUAUUUAUAAACUUGUCCUUAGAUUAAUGUGUCUGGACAGAUUGUGGGAGUAAGUGAUUCUUCUAAGAAUUAGAUACUUGUCACUGCCUAUGGAAUUCUCGGGUGCCAA,0.284
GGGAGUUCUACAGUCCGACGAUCCAUCUGCAGCCAGAAGUCACCCCAAUACAGUACUUCUAAGGAGGGGUCAGGUAAAGCAUGAGAGAGACUCUCAGCGCCGCCGCUGCCGCUGCCAGGGUGAUCAUUCAUCAUGGAAUUCUCGGGUGCCAA,1.37
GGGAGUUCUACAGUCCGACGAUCUGAGCUGGUGCGUUUAAGGAACAGGCCAGCACUGGCAUUCGCAAGCAGUGGGGAAGGGGAGAGAUGCCGAGGUGGUCAGUAUCCUGACUUUCAGAGGCCUUUUUUUGUUUUGGAAUUCUCGGGUGCCAA,0.575
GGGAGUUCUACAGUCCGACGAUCAAUUUAGUAACUUAGAUGCUUCCAGCACAUACGUAGGUAGCUACCCCAGCCGGUUUGGAUUACAGGCCUGUGCUGGAACAUCAUCUCAGUUGGCCACCUUCCUGGCAGGCUGGAAUUCUCGGGUGCCAA,0.308
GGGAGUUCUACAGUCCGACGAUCAAGAGACAGAGACAGAUGGGGUGAGGGGGGCAUUUGAGCUCCUAUGUUUUGUUCCCUAUUAUAGAGUAUAUGCAAAAUUUGUCCCAGAUCUUCUUUGACUUUGUGCUUGCUGGAAUUCUCGGGUGCCAA,1.08
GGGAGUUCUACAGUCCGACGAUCAUGACCAGAAAGGAUGGAAUGGCUUAAGUAAACUAAGGGUUCACUUCUAGAGCUGAGAAGCAGGGUCAAAGCACAAUACUGGGCAAUUCAGAGCAUGGUUAGAAGAGGAAUGGAAUUCUCGGGUGCCAA,2.16
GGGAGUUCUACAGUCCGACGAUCGAAGUCUGAACAGUCUGGAGCCAAUAGAAGCCAUCAGCCUGCUGCCUAUCUCCCAUAGCCAUUGCUGGCCACCCCUCUCUGUCAAUCUGUGCGCUCUUUUGAUACAUACAUGGAAUUCUCGGGUGCCAA,0.51
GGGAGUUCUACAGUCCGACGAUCAGUUCUUUUCAAACCCAGUUUCCCUUUUUCAAACUUUAAAACCUGCAUAAUUCUGCAGAUGUCCUAGGGUUUGAGUCAGUAACUUGUGAAUGAAAGUCAUUGGUAUUUGGUGGAAUUCUCGGGUGCCAA,0.346
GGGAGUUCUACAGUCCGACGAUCCUGAACUGUGCGUAAAGUAAUAGAGAAAAGCUUUAGGGUCUCAAUAGUGUCACCUGUGUAAAUCAAAUCAAAAUAGCCUUCCCUAUUAUUUAUGAACCCAUGGGAGACUUUGGAAUUCUCGGGUGCCAA,0.327
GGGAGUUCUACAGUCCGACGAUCUCAGGCUCUGUCCUAGAGUGGGCAGUCCUGAUGCAGGGCUCAGCAGGAGCCUAGUGCAGGGUGAACACGAAGCUGCUUGAGCAGCAGGAGGUGGCUGGACCAUCGUACCCUGGAAUUCUCGGGUGCCAA,0.22
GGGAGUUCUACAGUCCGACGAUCUCAGGCAUAUAUAUCUGUCUGUUAGCAAUGAUUAUUACAUCAUCAGAUCAGCAUGUGCUAUACUCCCUGCAAGAAAUAUACUGACAUGAACAGGCAGUUCUUGGAGAAGAUGGAAUUCUCGGGUGCCAA,2.86
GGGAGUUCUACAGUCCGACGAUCAACGUGUAUCAUAAUGUGUAUAAUUGUGUAACAAAAUUGUCUACAAUAAAUCUUUUGGUAUUUGUGGUGGGUGUUUCUGAGUUUGAAGCAUGGUACUCAGGCAGGGUUCUUGGAAUUCUCGGGUGCCAA,3.24

# Set 3
# Target: Centromere-binding protein 1, full length, His-tagged (CBF1, Saccharomyces cerevisiae, UniProt P17106, residues 1-351)
# Chain of UniProt P17106 (whole entry, looked up): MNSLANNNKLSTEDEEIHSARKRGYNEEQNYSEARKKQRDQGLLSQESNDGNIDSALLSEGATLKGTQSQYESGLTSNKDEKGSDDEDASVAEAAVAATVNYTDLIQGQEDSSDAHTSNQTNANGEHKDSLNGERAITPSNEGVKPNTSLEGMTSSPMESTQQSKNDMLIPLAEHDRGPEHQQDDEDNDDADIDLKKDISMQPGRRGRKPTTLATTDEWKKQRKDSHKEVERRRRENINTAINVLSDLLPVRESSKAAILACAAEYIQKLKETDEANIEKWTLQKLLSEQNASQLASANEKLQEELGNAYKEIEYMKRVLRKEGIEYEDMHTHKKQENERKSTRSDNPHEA
# Method: competition protein-binding microarray
# Form: double-stranded DNA, one strand shown
# Matrix: in vitro
# Concentration: 2 µM
# Setting: whole 60-bp probe, lowest competitor level
# Added: Pho4 competitor, 0.05 µM
# Reading: higher = stronger binding
Oligonucleotide,fluorescence intensity [a.u.]
CGGGGTTAAGTTTATCACGTGTTTTGCTTGCAGCAGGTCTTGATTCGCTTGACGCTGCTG,3690
TCGAGCCAGATCCCGCTCGTGGGACTGTTCATTCTGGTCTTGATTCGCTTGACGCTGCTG,57.1
CGCTACCAGAAACGATGCGTGCAAAGACCAGTGTTTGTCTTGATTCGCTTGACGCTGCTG,87.8
AAATTACTAAGTTGTCACGTTACTTACCCCGTATGAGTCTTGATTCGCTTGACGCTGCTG,1080
CGTCCTAGTGATTCACACGTGTTTTCCATGAGGAAGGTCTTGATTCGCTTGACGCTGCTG,1070
ACTCCAAAATACATCCTCGTGGCAACCCAGGTTACGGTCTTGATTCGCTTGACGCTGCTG,90.8
CATACCCAACCTTGGTCCGTGGGTGAAGATATTTGTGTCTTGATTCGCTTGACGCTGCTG,59.9
GGCAAGAGTTCTGCATTCGTGATGGATATCGGCGCGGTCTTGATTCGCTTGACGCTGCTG,67.1
CTTTCCCGATCTTGTCACACAACTTTAGCACATTTGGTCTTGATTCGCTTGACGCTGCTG,91
CGTAGACTTTTACGTCAGCTGAGAAAGAATATTTGTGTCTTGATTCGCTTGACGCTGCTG,313
AGAAAGCACATTTGTCACGTCTCAGGTATGTAGTTCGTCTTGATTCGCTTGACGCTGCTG,104
CGGGGTTAAGTTTGATGGGTGGGTGGCTTGCAGCAGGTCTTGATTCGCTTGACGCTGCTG,73
CCATGCTGTTTCCATCACGTGCAAATAACCTTTTTGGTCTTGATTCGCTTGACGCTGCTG,5510
ATATATCTACTCCATCACGTTGCAAGACCCATCACAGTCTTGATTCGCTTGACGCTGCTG,255
CAGATGGACACTTGTTACGTGTGGATCAGACTATTGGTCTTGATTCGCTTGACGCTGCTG,78.9
GCTGGTGTCTCGTCGCACATGCTATTGTGTGTCATCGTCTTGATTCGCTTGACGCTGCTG,104
TGCTGGATTAGGGAACACGTGGAAAGGGCTAGACCAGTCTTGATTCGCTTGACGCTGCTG,1030
GGAGATAGCCTTTTGAGCGTGATGGCTCTTTCTATAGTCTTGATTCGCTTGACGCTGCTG,66.8
AAGGTAGCCAAGAATACCGTGATGGTTGCTTAGTATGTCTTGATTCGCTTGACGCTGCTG,102
CGTCCTAGTGATTGCTATGTGGGTGCCATGAGGAAGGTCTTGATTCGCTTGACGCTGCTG,92
TTTAGGTACAACATACTCGTGTGTTGCTCACTTTGCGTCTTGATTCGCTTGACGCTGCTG,76.7
GTAATGCCATGGTTTCGCGTGCTTTTTTCCCCTTGCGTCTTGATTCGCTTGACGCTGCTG,100
AAAGCGGTAATTTGGCCGGTGGGTGCAGATATCTATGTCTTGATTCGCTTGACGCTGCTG,72.1

# Set 4
# Organism: Saccharomyces cerevisiae
# Effect on: binding
# Method: competitive growth deep sequencing
# Form: peptide
# Strain: cyclin E1-Cln2 fusion strain
# Concentration: concentration not given
# Setting: peptide tiling library
# Reading: direction not given
Molecule,growth enrichment score
PQWPCGKHKRVLIFAS,0.283
KDDDKAWEYEERDRRS,0.34
GAEELEDLVHFSVSEL,0.944
NFETPEAETPIRSPFK,0.724
SGYLTDENEVGFRG,0.557
VLPGGVPSPGASLTSM,0.573
LENIEPLQVSFAVLSS,0.273
DGCSPIKNWSPMRL,1.54
VRDLSYRLVFLACCVA,-0.613
RNRGPKLNAMLRLGVL,-0.617
TSPGPVLLHPSPSTTQ,0.47
VLVRTSACRSLFGPVD,0.553
TRRRLFVENDSP,2.54
QNPCGSKACRRLFGPV,1.88
NNIRKALSFDNRGEEH,-1.05
FQDSGYNELKSCSFDN,0.827
AEHPKPSACRNLFGPV,2.69

# Set 5
# Target: Interferon regulatory factor 7, full length, phosphomimetic (IRF7, Homo sapiens, UniProt Q92985, residues 1-503, S101K/S471D/S472D/S475D/S476D/S477D/S483D/S484D/S487D)
# Method: protein-binding microarray
# Form: double-stranded DNA, one strand shown
# Matrix: in vitro
# Concentration: 250 nM
# Setting: 60-bp whole probe
# Added: salmon DNA 0.4 mg/ml
# Relative to: random background probes
# Reading: higher = stronger binding
# All sequences stand within: GCCTAGCAC … GTCTTGATTCGCTTGACGCTGCTG
# Construct (chain): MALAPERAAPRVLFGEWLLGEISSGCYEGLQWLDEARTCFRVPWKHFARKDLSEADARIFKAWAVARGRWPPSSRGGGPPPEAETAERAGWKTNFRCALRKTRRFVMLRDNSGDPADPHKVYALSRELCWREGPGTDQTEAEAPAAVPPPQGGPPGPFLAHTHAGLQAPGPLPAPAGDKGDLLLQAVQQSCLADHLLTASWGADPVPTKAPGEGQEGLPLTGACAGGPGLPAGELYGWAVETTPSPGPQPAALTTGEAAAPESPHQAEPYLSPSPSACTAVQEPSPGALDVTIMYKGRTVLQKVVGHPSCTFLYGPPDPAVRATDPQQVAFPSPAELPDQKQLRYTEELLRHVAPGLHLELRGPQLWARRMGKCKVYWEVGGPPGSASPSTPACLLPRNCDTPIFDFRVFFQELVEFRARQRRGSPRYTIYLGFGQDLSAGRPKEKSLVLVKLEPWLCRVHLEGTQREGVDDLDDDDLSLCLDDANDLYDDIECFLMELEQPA
Oligonucleotide,log fluorescence [z-score]
GACGGACTGGGTTTCGCGACGTGCTAG,0.182
TTCTTTATGTACTCTCTCCATGTGCTA,0.603
TTAGATTTCAGTTTCGATAAGTGCTAG,5.28
GACGAACTGAGATTGGAGACGTGCTAG,-0.324
TTAGGTCTGCTTTTCCTTTAGTGCTAG,1.1
TTAGAACTGAGTTTCGATCAGTGCTAG,3.25
TCATGCTTCTGTATTCAACTGTGCTAG,-0.0971
TCAATTCTAGCCTATAGAACTGTGCTA,0.18
GACGGTATCAGACTGGGGACGTGCTAG,-0.24
ATTTTTTTGCATTGCTTCTAGTGCTAG,0.749
GACGATCTCCTTCTCCTGACGTGCTAG,0.181
GACAGACTGGGGTTTCGGGACGTGCTA,1
GACGTTTTCGGGACTGGGGACGTGCTA,0.934

# Mixed results
Substance,target,assay,test system,setting,how to read,quantity,result
"PhoQ, residues 284 288 289 292 302 303 QWGLFV","PhoP, residues 12 14 15 18 19 YHFSH (Escherichia coli, UniProt P23836)","Sort-seq, measured: YFP reporter",E. coli,"PhoQ-PhoP variant library, added: 10 µM Mg2+","relative to: high Mg2+ state, higher = stronger signaling",fold induction,5.41

# Excerpt of the above (set 5):
Oligonucleotide,log fluorescence [z-score]
GACGAACTGAGATTGGAGACGTGCTAG,-0.324
TTAGGTCTGCTTTTCCTTTAGTGCTAG,1.1
TTAGAACTGAGTTTCGATCAGTGCTAG,3.25
TCATGCTTCTGTATTCAACTGTGCTAG,-0.0971
TCAATTCTAGCCTATAGAACTGTGCTA,0.18
GACGGTATCAGACTGGGGACGTGCTAG,-0.24
ATTTTTTTGCATTGCTTCTAGTGCTAG,0.749
GACGATCTCCTTCTCCTGACGTGCTAG,0.181
GACAGACTGGGGTTTCGGGACGTGCTA,1
